Results gathered from unrelated publications.
Compare with care: the assays were run in different laboratories. ± gives the spread as reported.
Chain of UniProt P33261 (whole entry, looked up): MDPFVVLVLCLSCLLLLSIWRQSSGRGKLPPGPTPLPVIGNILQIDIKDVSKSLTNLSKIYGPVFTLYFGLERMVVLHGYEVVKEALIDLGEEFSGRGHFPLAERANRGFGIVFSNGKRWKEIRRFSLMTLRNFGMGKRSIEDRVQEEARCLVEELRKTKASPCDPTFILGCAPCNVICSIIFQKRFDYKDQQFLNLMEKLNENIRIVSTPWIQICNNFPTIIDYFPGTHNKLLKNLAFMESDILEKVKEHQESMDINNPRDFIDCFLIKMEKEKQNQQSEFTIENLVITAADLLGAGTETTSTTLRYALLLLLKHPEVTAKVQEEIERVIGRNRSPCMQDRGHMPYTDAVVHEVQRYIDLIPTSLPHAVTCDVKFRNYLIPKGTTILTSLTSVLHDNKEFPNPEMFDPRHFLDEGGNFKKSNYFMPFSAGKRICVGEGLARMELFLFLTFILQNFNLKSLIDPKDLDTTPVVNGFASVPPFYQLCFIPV
Chain of UniProt P21917 (whole entry, looked up): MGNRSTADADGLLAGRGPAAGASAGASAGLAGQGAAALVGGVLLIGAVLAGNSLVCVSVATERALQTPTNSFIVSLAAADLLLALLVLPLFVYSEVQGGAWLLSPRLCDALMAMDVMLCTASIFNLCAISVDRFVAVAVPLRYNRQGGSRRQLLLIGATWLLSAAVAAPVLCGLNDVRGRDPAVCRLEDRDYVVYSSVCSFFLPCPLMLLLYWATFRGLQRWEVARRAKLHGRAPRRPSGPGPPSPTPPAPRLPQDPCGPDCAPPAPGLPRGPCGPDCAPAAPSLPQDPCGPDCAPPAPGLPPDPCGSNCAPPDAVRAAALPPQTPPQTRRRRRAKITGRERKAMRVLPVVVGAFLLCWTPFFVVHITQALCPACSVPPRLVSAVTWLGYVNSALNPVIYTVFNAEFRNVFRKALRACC

The remaining activity of `CNC(=O)C1CCCN(C(=O)C2CC3CCC2N3C(=O)[C@@H]2C[C@@H](O)CN2C(=O)NCc2cccc(Cl)c2F)C1` (mixture of isomers) is reported as 81.8% (Cytochrome P450 2C19 (CYP2C19, Homo sapiens, UniProt P33261); enzyme activity, inhibitor, time-dependent inhibition; 1.85 µM, preincubated without NADPH; baseline: negative control).
The revertant colonies of `O=C1NC2(CC2)COc2ncc(F)cc2[C@H]2COCCN2c2ccn3ncc1c3n2` is reported as 10 ± 3 revertants/plate (Salmonella typhimurium; Ames test; TA1535; 50 µg/plate, 48 h, together with: rat liver S9).
`CNS(=O)(=O)Nc1nccc(Cc2c(C)c3ccc(Oc4ncccc4F)cc3oc2=O)c1F` has an IC50 of 6.23 nM (C8166-CD4; cell viability, CellTiter-Glo; 7 days).
`Cc1ncsc1-c1ccc(C(C)NC(=O)C2CC(O)CN2C(=O)C(NC(=O)CCCCCCCCCCN2CCCC(Nc3ncc(Cl)c(Nc4ccccc4S(=O)(=O)C(C)C)n3)C2)C(C)(C)C)cc1` (stereo not drawn): “log2 fold change” -2.17 (22Rv1; RNA-seq, item: OSGIN1 mRNA; concentration not given; baseline: DMSO).
The cell viability of `Cc1cc(=O)c2c(O)c3c(O[C@@H]4O[C@H](CO)[C@@H](O)[C@H](O)[C@H]4O)cc(O)cc3cc2o1` is reported as 86 ± 9.77% (HK-2 co-cultured with HepaRG; MTT; 33.33 µM, 48 h; baseline: untreated control).
For `C=C(NC(=O)c1csc(-c2nc3c(cc2O)-c2nc(cs2)C(=O)NC(C(C)O)C(=O)NC(=C(C)OC)c2nc(cs2)C(=O)NC2c4nc(cs4)C(=O)NC(COC(=O)c4c5c6c(cccc6n4O)COC(=O)C(OC4CC(C)(O)C(N(C)C)C(C)O4)C2OC5)c2nc-3cs2)n1)C(N)=O` (stereo not drawn), the clearance was 2.62 mL/min/kg (cynomolgus monkey, plasma; intravenous, infusion).
For `N#Cc1cccc(OCC2CN(Cc3cn4nc(Cl)ccc4n3)CCC2(F)F)c1` (stereo not drawn), the Ki was 35 nM (D(4) dopamine receptor (DRD4, Homo sapiens, UniProt P21917); ligand displacement, radioligand; cell membranes).
Under “log2 fold change”, `COC1CN([C@H]2CC[C@H]([C@@]3(C)Oc4c(Cl)cc(C(=O)NCc5c(SC)cc(C)[nH]c5=O)c(C)c4O3)CC2)C1` is recorded as 1.48 (RNA-seq, item: FRMD4B; human, whole blood; dose not given, 24 h; baseline: pretreatment baseline).
`CC[C@H](C)[C@@H]1NC(=O)[C@H](Cc2ccc(O)cc2)NC(=O)CCCSC[C@@H](C(=O)N(CC(=O)N[C@@H](CC(C)C)C(=O)NCC(N)=O)Cc2ccc(F)cc2)NC(=O)[C@H](CC(N)=O)NC(=O)[C@H](CCC(N)=O)NC1=O` gave a drug-related headache of 17% (human; intranasal, 15 µg single dose).
With `CCN(CC)CC#CCNc1ccnc2cc(Cl)ccc12` the mean revertants was 6 revertants/well (Salmonella typhimurium; mini-Ames test; TA98; 125.0 µg/well, without S9).
For `CC(C)OCCOCc1ccc(OCC(O)CN(N=O)C(C)C)cc1` (stereo not drawn), “revertant fold increase” read 1.2 fold (Escherichia coli; Ames test; WP2 uvrA; 50 µg/plate, without metabolic activation; baseline: solvent control).
`O=C1C2CC3CC1CC(C(=O)N1CCN(c4ccc([N+](=O)[O-])c5ncccc45)CC1)(C3)C2` — result for “revertant fold increase”: 1 (Escherichia coli; Ames test; WP2 uvrA pKM101; 0.78 µg/well, with S9; baseline: vehicle).
